# Assay results gathered from unrelated publications.
# A part holds a random share of what one study measured. Changes are numbered by the printed parent chain.

# Series 1
# Target: ABI1, truncated, D143A, DHFR fusion (Arabidopsis thaliana)
# Method: DHFR PCA, deep sequencing
# Medium: yeast
# Notes: methotrexate growth selection, single substitutions
# With: (+)-ABA 2500 µM
# Reference: wild-type fitted maximum
# Direction: higher = stronger binding
# Starting sequence: PYL1, truncated, DHFR fusion (Arabidopsis thaliana); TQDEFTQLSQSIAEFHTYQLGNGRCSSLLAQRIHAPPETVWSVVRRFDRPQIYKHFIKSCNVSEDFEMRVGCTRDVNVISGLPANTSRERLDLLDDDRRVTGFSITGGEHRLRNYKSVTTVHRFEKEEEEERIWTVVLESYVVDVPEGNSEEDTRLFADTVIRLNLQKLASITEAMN
Substitution,relative binding score
F157W,58.8%
T119M,99.8%
D95A,88.2%
T86C,93.5%
V76A,82.6%
T17Y,82.6%
W134F,109%
W41A,2.29%
V43A,91.3%
E128D,95.2%
F124Q,104%
T160S,90.3%

# Series 2
# Target: Histone acetyltransferase KAT6A, winged helix 2, GST fusion (KAT6A, Homo sapiens, UniProt Q92794, residues 85-181)
# Method: protein binding microarray
# Form: double-stranded DNA, one strand shown
# Medium: in vitro
# Concentration: not given
# Notes: 8-mer, flanks averaged, mean of 2 arrays, mostly near background
# Reference: not given
# Direction: higher = stronger binding
# Residues (chain): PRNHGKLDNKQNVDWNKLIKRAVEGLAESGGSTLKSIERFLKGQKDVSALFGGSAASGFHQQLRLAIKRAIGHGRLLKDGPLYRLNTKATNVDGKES
Sequence,E-score
AATAAATG,-0.143
AGCCCTTA,-0.078
AACATAGA,-0.104
GATATCCC,0.141
ACGTGTGC,-0.271
GGTATTCA,0.0521
CCAAAATC,0.0984
CTCTAGTC,-0.153
CAAGACTG,-0.167
ACAGCCGG,0.0955
TGCAGAAA,0.0549
AAGGTGGA,0.0576
CAGTAGGA,-0.0989
AGGTCGTG,0.00364
CAAGGCTG,-0.0827
AAGGGCAA,0.132
ATTACTAC,-0.222
CAAGCTTC,0.00927
AGGCGTAA,-0.0191
ACAGACGT,-0.0793
CGAGAGTA,0.0758
CCACTTAG,0.0367
TCCTCAAA,0.00522
CTCCTTCC,-0.138
CGAGCACA,0.124

# Series 3
# Target: RING finger protein unkempt homolog, zinc fingers 1-6, GST-SBP tag (UNK, Homo sapiens, UniProt Q9C0B0, residues 30-357)
# Method: RNA Bind-n-Seq
# Form: RNA
# Medium: in vitro
# Concentration: not given
# Notes: RNA with constant flanks, human and mouse sites, ends assumed
# Reference: input RNA pool
# Direction: higher = stronger binding
# Construct (chain): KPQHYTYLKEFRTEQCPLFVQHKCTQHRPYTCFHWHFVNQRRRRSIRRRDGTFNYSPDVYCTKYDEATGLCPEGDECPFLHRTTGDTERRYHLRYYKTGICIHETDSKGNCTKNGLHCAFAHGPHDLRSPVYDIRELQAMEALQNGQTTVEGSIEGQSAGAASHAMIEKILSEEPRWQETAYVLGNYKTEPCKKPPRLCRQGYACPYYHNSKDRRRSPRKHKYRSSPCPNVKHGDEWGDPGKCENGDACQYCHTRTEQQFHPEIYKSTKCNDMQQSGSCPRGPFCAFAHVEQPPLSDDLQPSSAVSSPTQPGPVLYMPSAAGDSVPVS
Sequence,bound/input enrichment
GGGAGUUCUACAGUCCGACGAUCACAUGCACAGUGUAACUCCUGAAAGCUCUGACAAACCACCCUCAUUACCACCACUGAUGACAUCUCCAUUUGAUAAAAGGCAUGCCAGUCGCAUUUCACCAUCAUUAAGAUACAGUAACACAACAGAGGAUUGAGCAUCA,0.183 ratio
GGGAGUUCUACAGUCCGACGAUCUUUACAACGCACCAAGAACAUUCUAUUCGCAGAAAUUUCUUAAAAACAGGUACUAAAUUUAGCAACUUUAUUCACGAAGAACACCAGUCCAAUGGGGGUGCUCUUGUCCUUCAUGCAUACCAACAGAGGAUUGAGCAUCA,1.61 ratio
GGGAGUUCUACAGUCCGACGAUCGGGAUUUCAUUUAUCUUUUGCUGUUUCCGAAACAAUGACCAUCCAGAAAUCACAUAUCGGCUUAGGAAUGAUAGCAACUUUGCACUUCAGACAAUGGAGCCGGCGCUGCCCAUGCCCCCUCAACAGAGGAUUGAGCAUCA,0.207 ratio
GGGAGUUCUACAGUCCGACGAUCGGUUCUCUGCCCCCACCCCCGGCCCUUUGUUUGACUUGCGUCGUCUGAUACUCAGUAUUGUAGCUUUUUGUCCGCAUGUUACUCCCUGUAAAUACGCUGUUAUACAUACUGUUAACACCCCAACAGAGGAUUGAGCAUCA,0.44 ratio
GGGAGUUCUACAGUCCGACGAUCGUCCUAGCUGAACCAUCAAGGUCUAAUGGAAAUAUGGUUCGUCAUUCUUCGUCUCCAUAUGUAUUGUAUCCACCUGAUAAGCCUUUCCUUAACAGUGAUCUGAGACGCUCCCCAAAUAAGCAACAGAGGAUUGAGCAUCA,0.473 ratio
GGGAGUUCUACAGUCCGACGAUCGUGUUUGAGGAGAUGAAUGUGGAUCUGCAGGAGGAGCUGCCGUCCCUGUGGAACAGCCGCGUAGGUUUCUACGUCAACACGUUCCAGAGCAUCGCGGGCCUGGAGGAAAACUUCCACAAGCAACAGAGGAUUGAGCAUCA,0.106 ratio
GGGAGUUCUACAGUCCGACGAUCUUUUCUGUAUUAAGCAAAUUCUAAUUUUUAUAUGUGGUUUUUGACUGUGGGGGUUGUCUCUAUAGUUUGUCUUACUGUUGAAAUGACAUGGUUAUCCAAAGCCUCUAGUGUCCGUCAGGUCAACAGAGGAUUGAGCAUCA,2.33 ratio
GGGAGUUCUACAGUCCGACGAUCCAGGAGUCUCUGGGACAGUCCGAGAGUUUAUCUCCCCACAAGAUGACCAAGUUGUUACAGAGAUUUCCCAACAAAUCUCAUCUCAUCUGAAAAUGGAGAAAUAUUUUCAAUGAACUCUCACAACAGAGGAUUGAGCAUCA,0.0724 ratio
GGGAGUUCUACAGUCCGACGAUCUGAGGAGACACGAAGGUGGUUCCCCAGCCGCUCAAAUUUCCGGACCACCGCGCUUUCCCCUCCUCAGCCUGGGCUGUGCUCUCUCUAGAAUCCUCGGGCCCCCACUUUCUUCCCAAACUCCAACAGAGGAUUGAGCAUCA,0.658 ratio
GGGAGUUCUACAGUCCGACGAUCUGUGUGCGUGCCCGAGUGUGCGCGCGCGGGUGUGUGGACUCGGAGGUGGGGGCAGCCGAGUUAGUCCCAAGUCGUCGGACUCCAUUUGCUAUUCUUUUCUUUCUCUCCCACACCCGUGUGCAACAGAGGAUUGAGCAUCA,0.288 ratio
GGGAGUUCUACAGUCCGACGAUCAGUUAAAGAAACUGUAACAUAUCUCUUAUAUAUUAAAAACGUUUAAAAGUUUUAAAGAGAAAUUGCAUUAAUACAGAUUGAAGUAUUUUAUUCUUUUUUGACUUGAAAAAUUAUAUUUCACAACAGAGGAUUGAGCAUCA,0.285 ratio

# Series 4
# Target: RNA binding protein fox-1 homolog 2, RRM domain, GST-SBP tag (RBFOX2, Homo sapiens, UniProt O43251-10, residues 100-194)
# Method: RNA Bind-n-Seq
# Form: RNA
# Medium: in vitro
# Concentration: 365 nM
# Notes: natural RNA segment, single round, ends assumed
# Reference: no-protein control
# Direction: higher = stronger binding
# Residues (chain): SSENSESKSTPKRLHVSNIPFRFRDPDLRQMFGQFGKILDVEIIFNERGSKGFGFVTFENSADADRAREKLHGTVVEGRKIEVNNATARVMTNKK
Sequence,RBNS enrichment (R)
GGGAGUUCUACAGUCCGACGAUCAUGGCUGGCAGCCAGAUCCUGGGGCAACCCAUCUGGUCUCUUGAAUAAAGGUCAAAGCUGGAUUCUCACCAUAGCCUCUGUCUCUCUUGUCCCGUCCCAGACAGUGGGCCUGGAAUUCUCGGGUGCCAA,0.354
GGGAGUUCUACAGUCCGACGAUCGACAAUAUAUCAUAACUUAAUAAAUAUUGUAUUUUAGAUAUAUUCUCUAAUAAAAUUCAGAAUUCUAUUCUGGGUUAUUUAUUUAUUUAUUUUUAUUAUACUUUAAGUUUUGGAAUUCUCGGGUGCCAA,1.42
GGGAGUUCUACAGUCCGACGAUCGCAAAGCCUAGCCUGCAUAUCAUUCACCCAAAACAAAGUAAUAGCGCCUCUUUUAUUAUUUUGACUGAAUGUUUUAUGGAAUUGAAAGAAACAUACGUUCUUUUCAAGACUGGAAUUCUCGGGUGCCAA,0.659
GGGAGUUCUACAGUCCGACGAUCCUAAGAACCAGCUUCCCAGUGGGGCUCCCUACUUUGUGUGCACCUUGGGCAGUGCCUCUGGGCACUAAUGUUCAUUAGUCCAAGUUUUUGAAGAUCUGCACACAGUAAGUUGGAAUUCUCGGGUGCCAA,0.416
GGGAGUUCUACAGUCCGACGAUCUACUAAAGGUUUUACUGUCAUAAUUUAAAGGGGACUCUUCACGACCCGUCACAAUAAACCAUUCUCAAGUUAUCUAUGUGUGUGUGUAUAUAUAUCUCAGGUUUUUAGACUGGAAUUCUCGGGUGCCAA,0.566
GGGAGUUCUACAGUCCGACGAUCGUAGUGUCCUGCCUAUUCCUUUCUGGCUACCUAAACGGUUCUCACUCAGGUCCUCUGGAAUAUUCUCUGCACUCUGUCCAUCUUCUGCUGCAGCUCUGCAUGCAAUUUAGUGGAAUUCUCGGGUGCCAA,0.463
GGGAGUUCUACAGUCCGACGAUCGGCACACUAAAAAAGAUCCUAGUUGAGCAUCUCUCUUGGUGAGGAAGCGAUGUGUGUGCGGUUCAGGAAACUCCUCCAAGAGGAGGAGGAGUCCAAACAGGGAUGCCAGAUGGAAUUCUCGGGUGCCAA,0.427
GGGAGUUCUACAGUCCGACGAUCAAUCAACUGAACAUAUAUGUAAGAGUUAUUUAAAUUUUGAAAUUGGGACGUAUACAUUCUCCAUUCUUUUUGACAUUAUUUUGGCUAAUCUGGGUCCUCUGCAUUUCUGUUGGAAUUCUCGGGUGCCAA,0.656
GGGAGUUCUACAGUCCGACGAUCAUGGAAAUUAUAUCUUGUGACCGUCUUCAAGUGCAUGGACUUAAAAUUCAUGAGAGACUAAAUGUGAGGGAGAGGUGGAUUUAAAGAGGCCAGACCUUAACCAAAGAUGCUGGAAUUCUCGGGUGCCAA,0.618

# Some of these lines once more (series 3):
Sequence,bound/input enrichment
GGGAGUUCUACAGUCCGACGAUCUUUUCUGUAUUAAGCAAAUUCUAAUUUUUAUAUGUGGUUUUUGACUGUGGGGGUUGUCUCUAUAGUUUGUCUUACUGUUGAAAUGACAUGGUUAUCCAAAGCCUCUAGUGUCCGUCAGGUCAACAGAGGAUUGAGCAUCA,2.33 ratio
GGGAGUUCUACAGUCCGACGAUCUGAGGAGACACGAAGGUGGUUCCCCAGCCGCUCAAAUUUCCGGACCACCGCGCUUUCCCCUCCUCAGCCUGGGCUGUGCUCUCUCUAGAAUCCUCGGGCCCCCACUUUCUUCCCAAACUCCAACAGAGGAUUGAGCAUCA,0.658 ratio
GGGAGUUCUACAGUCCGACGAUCGGUUCUCUGCCCCCACCCCCGGCCCUUUGUUUGACUUGCGUCGUCUGAUACUCAGUAUUGUAGCUUUUUGUCCGCAUGUUACUCCCUGUAAAUACGCUGUUAUACAUACUGUUAACACCCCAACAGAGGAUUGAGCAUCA,0.44 ratio
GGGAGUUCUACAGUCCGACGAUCUGUGUGCGUGCCCGAGUGUGCGCGCGCGGGUGUGUGGACUCGGAGGUGGGGGCAGCCGAGUUAGUCCCAAGUCGUCGGACUCCAUUUGCUAUUCUUUUCUUUCUCUCCCACACCCGUGUGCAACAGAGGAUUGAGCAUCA,0.288 ratio
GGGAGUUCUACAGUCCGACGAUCCAGGAGUCUCUGGGACAGUCCGAGAGUUUAUCUCCCCACAAGAUGACCAAGUUGUUACAGAGAUUUCCCAACAAAUCUCAUCUCAUCUGAAAAUGGAGAAAUAUUUUCAAUGAACUCUCACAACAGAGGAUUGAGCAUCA,0.0724 ratio
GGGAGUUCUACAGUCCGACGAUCUUUACAACGCACCAAGAACAUUCUAUUCGCAGAAAUUUCUUAAAAACAGGUACUAAAUUUAGCAACUUUAUUCACGAAGAACACCAGUCCAAUGGGGGUGCUCUUGUCCUUCAUGCAUACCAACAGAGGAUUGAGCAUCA,1.61 ratio
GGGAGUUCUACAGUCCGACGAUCAGUUAAAGAAACUGUAACAUAUCUCUUAUAUAUUAAAAACGUUUAAAAGUUUUAAAGAGAAAUUGCAUUAAUACAGAUUGAAGUAUUUUAUUCUUUUUUGACUUGAAAAAUUAUAUUUCACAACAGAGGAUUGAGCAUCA,0.285 ratio
